Measurements from different studies.
Each numbered part is a random draw from the data of one study; scales do not carry over between parts.

Sample 1
Target: Sal-like protein 4, full length isoform B (SALL4, Homo sapiens, UniProt Q9UJQ4-2, residues 1-616)
Method: universal PBM
Molecule type: double-stranded DNA, one strand shown
Sample: in vitro
Tested at: not given
Setting: 8-mer, flanks averaged, mean of replicates
Direction: higher = stronger binding
Measurement: E-score
Target sequence (chain): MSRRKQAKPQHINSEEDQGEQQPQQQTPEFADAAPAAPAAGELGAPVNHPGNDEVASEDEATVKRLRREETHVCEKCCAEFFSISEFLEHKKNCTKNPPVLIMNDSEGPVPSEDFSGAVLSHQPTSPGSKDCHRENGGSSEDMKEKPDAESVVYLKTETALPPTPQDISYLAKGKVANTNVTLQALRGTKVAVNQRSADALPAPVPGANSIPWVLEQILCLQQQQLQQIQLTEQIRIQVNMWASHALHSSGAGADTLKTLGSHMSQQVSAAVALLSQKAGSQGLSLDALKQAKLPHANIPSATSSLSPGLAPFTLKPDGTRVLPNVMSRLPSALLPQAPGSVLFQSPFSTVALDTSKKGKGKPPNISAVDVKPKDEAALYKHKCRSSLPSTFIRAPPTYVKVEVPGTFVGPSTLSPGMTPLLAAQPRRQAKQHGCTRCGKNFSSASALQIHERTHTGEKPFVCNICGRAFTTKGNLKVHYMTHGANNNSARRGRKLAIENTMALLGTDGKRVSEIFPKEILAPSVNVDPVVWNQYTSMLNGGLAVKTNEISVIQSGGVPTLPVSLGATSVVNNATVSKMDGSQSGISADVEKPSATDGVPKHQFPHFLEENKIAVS
TCGATGAA: 0.105
CTGCCTGA: 0.0211
ATTCTAGC: 0.0486
GACGCATA: 0.0666
CTGAATCA: 0.0474
TGAGCCAA: 0.0849
CATTTGGC: -0.0435
AGGCAATG: -0.071
CCGGGCGA: -0.265
ATTGGTAG: 0.224
ATTCATCC: 0.157
CCTAGTAA: 0.0114
AGAGAGTC: -0.0986
CGTGACAA: -0.0352
AGTCCGTG: -0.268
GTATCTAA: 0.272
ACTGACCA: -0.169
CAAGTCGC: -0.235
ACAATGGA: 0.19
CTAAACTA: 0.0384

Sample 2
Substance: PhoQ, residues 284 288 289 292 302 303 HSYLQF
Method: Sort-seq
Measured: YFP reporter
Sample: E. coli
Setting: PhoQ-PhoP variant library
Together with: 10 µM Mg2+
Reference: high Mg2+ state
Direction: higher = stronger signaling
Measurement: fold induction
PhoP, residues 12 14 15 18 19 SFCSL (Escherichia coli, UniProt P23836): 35.2
PhoP, residues 12 14 15 18 19 AYFRS (Escherichia coli, UniProt P23836): 2.07
PhoP, residues 12 14 15 18 19 HHYTI (Escherichia coli, UniProt P23836): 1.17

Sample 3
Target: Interferon regulatory factor 3, full length, phosphomimetic (IRF3, Homo sapiens, UniProt Q14653, residues 1-427, S386D/S396D/S398D/S402D/T404D/S405D)
Method: protein-binding microarray
Molecule type: double-stranded DNA, one strand shown
Sample: in vitro
Tested at: 2540 nM top
Setting: 60-bp whole probe
Together with: salmon DNA 0.4 mg/ml
Reference: random background probes
Direction: higher = stronger binding
Measurement: fitted relative affinity
All sequences stand within: GCCTAGCAC … GTCTTGATTCGCTTGACGCTGCTG
Target sequence (chain): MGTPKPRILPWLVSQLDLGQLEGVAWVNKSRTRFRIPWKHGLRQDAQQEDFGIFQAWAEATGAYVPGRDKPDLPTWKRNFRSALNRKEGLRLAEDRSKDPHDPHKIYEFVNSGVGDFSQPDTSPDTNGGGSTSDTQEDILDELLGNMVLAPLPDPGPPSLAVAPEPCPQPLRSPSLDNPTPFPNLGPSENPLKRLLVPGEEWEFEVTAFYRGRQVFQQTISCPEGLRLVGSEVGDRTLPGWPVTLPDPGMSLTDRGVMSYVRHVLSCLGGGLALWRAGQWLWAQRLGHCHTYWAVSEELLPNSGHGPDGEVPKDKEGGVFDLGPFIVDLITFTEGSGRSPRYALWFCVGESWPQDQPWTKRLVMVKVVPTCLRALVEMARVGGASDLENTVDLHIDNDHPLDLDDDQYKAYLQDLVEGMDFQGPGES
GACGGTTTCGACACTCGGGACGTGCTA: 2.91 z-score
TTAGGTTTCCTTTCCCTTCAGTGCTAG: 10.5 z-score
TTAGCTTTCAGTTCCGATTAGTGCTAG: 3.88 z-score
GACGATTTCAGAATGGAGACGTGCTAG: 1.94 z-score
TTAGGTTCCGGTTTTGGTTAGTGCTAG: 5.03 z-score
TATGGTATTTTTTTCTAATTGTGCTAG: 0.689 z-score
GGTCCTCTGGGCTGTTTGGCCGTGCTA: -0.356 z-score
GTTTTTTAAAGTTTCAGTGAGTGCTAG: 1.37 z-score
TTTAGGTCCCTTTTCATGCTGTGCTAG: 3.52 z-score
GAGATTTTCATTATTGCTTCGTGCTAG: 1.41 z-score
GACGGTCTCGGTAACGGGACGTGCTAG: 0.322 z-score
GACGATCTCAGACTGGATACGTGCTAG: 0.519 z-score
AGTCATCTCCAAAGTCAGCCAGTGCTA: 0.118 z-score
TGAGGTTTCGGGTATCGGTTAGTGCTA: 4.21 z-score
GACGTACTGGGTTTCGGGACGTGCTAG: 1.36 z-score
TTAGATCTCAGGCTCGATTAGTGCTAG: -0.141 z-score
GAGGGTATCGGTCTCGGGACGTGCTAG: 3.03 z-score
TAAGGTTTCGGTTCCGGTTAGTGCTAG: 11.3 z-score
GACGGTATAGGGTATCGGGACGTGCTA: -0.113 z-score
TTGGGACTGCTTCTCCTTTAGTGCTAG: -0.413 z-score
GACGGACTGGGGTACCGGGACGTGCTA: -0.753 z-score
AACGGTTTCGGGTTTCGGGACGTGCTA: 5.71 z-score
GGCGGACTGGGGTTTCGGGACGTGCTA: 0.351 z-score
TCATGTTTGGTTCTTATACTGTGCTAG: 0.784 z-score
GACGATCTCAGTAGCGAGACGTGCTAG: 0.338 z-score

Sample 4
Target: RNA binding protein fox-1 homolog 2, RRM domain, GST-SBP tag (RBFOX2, Homo sapiens, UniProt O43251-10, residues 100-194)
Method: RNA Bind-n-Seq
Molecule type: RNA
Sample: in vitro
Tested at: 365 nM
Setting: natural RNA segment, single round, ends assumed
Reference: no-protein control
Direction: higher = stronger binding
Measurement: RBNS enrichment (R)
All sequences stand within: GGGAGUUCUACAGUCCGACGAUC … UGGAAUUCUCGGGUGCCAA
Construct (chain): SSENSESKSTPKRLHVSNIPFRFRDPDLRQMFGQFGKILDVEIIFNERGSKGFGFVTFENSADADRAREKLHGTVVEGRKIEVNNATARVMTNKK
UCUGUCCCUGGUUCAACUGUGAUUUGGCUUUCCCGUGUCUUUCCUGGUGAUGCCUUGUUUGGGGUUCUGUGGGUUUGGGUGGGAAGAGGGCCAUCUGCCUGAAUGUAACC: 0.648
UACCUUUUCUGGGUGAUCUUGUGGCACAUGUAGCAAUGUUUCUUUCAUUCCUGUCCCUUCCUGGCUUGAGCUCUUGGCUGUAUUCUGUGUGCCUCUACCAUGUCUGCUGU: 0.456
AAAAACAUAUAUUUUGCAGAGCUCCACAUACAGAAACACAUUAUUUUGCAGAAAUAAGUGUUUGUAAGAAGUUUUACUAUAGGAAAGUCUACUUUUUUAAGCAGCAAAGU: 0.815
CAGUGUCUGGCUCCCUGAUAGGAGGGAGGUCCCAGGGUAGGAGCGGGCUGGCAGGCGCUGACUGCCUCAGCCCAUGUGCCCUGCCGGCCAGGGCGUGGCCUCCCCAAGGC: 0.323
AAUACUAUCAAAAACUAAGGCUAAACAUUCCUUGUGUAUCUUUAAGCAUGCUUCUCCUGAAAUUUAACUACAUUAGUAGUUGACAUUUGUAUACAUAUAUCCUAAUACAA: 2.91
ACUUCCAAUGCUUCUCUAGGCCCUGCACGUAAGUGAUUUUUCCAGUUCAAAGUCAAGACAGGUAAAAGGGCAUUCAUCAUUGUGCCUCAUAUCAGGUUUUGAUGAAUAUA: 0.456
UUUUGAUUUCAGUGCCUGUUGGGGACUUGAUUUCUUCUCAGUUUUGUUUGUUUGUUUGUUUCCUUAAUCUGGCUCAUUUGAAAUUUCUUCUCCCUCUCAACCAUCCCACU: 1.69
GUGUAUUAGCGGACGGCCCUCUGGCCACCUACCCGAGAGAUCGUAGGGUCACAUACAUCCAACUUCACCACUUGGCUGCUUGAGAUUGGUUCUGCUCUUUUCUUCAUUUC: 0.308
UCACUGUGUAACAUUGGCUCACUUGGUGAGCAUAGGGUUGACUGAUAAAAUGUUUAAUUCCCUUGCUAGCUUGUGAGAAGAAUGAGUUGAUGACAUGCUCCAUACCAGUG: 1.27
CCCUUCUCCUGGGGUGAUUGAUGGCCUGAGCCUGGGGUCCUGGUAGUAGAGACCCAGCUGGCCUGGGGUCUGCUUUCCGACAUUUUGCCUCUCUCACUGGUCAUGUAUUU: 0.325
UAUCCUCCUGGCCCCACCCUGCCCCUUCUUUUUGGUUUUGACAUCAUUCAUUUCCACCUGGGAAUUUCUGGUGCCAUGCCAGAAAGAAUGAGGAACCUGUAUUCCUCUUC: 0.516
UUUUUUUGCUUUGUUUUGUUUGUGCUAAUUUGGGAAUUGUGUACUCCGAAACAAGUAGAAAAGUGCUGUUUGAGGGAUUUUAUUAAAUCUUUUUUUAAUGGAAUGUGGUA: 0.639

Sample 5
Target: Histone acetyltransferase KAT6A, both winged helices, GST fusion (KAT6A, Homo sapiens, UniProt Q92794, residues 1-181)
Method: protein binding microarray
Molecule type: double-stranded DNA, one strand shown
Sample: in vitro
Tested at: not given
Setting: 8-mer, flanks averaged, mean of 2 arrays, mostly near background
Reference: not given
Direction: higher = stronger binding
Measurement: E-score
Residues (chain): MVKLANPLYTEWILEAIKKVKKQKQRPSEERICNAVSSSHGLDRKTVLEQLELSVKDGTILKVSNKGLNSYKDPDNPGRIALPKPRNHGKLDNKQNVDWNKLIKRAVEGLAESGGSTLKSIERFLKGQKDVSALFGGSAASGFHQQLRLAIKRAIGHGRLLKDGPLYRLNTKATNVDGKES
CATTTGGA: -0.0945
ATAGGGTC: -0.12
GATTCGCA: 0.0753
ACGGGCTC: 0.217
AATGCCAT: 0.0382
CAAAAGGC: -0.0128
ACTCTACT: -0.13
GGTAGTAC: -0.0309
GGGAACCA: -0.00734
GATATGTA: 0.0318
CCCCTTAC: -0.0318
AGCGCAGG: 0.229
CGCGCCGA: 0.319
ACGGTATG: 0.0632
CATTGAAG: -0.0258
CCTTCGCC: 0.00766
CCCAAAAC: -0.128
GATCGTGC: 0.0406
CTGCTCGC: 0.0786
GCCAAACC: -0.00259
AAGGGAAT: -0.11
ATACGAGA: -0.166
CGTGGTGC: -0.0762

Repeated from above (sample 3):
TTGGGACTGCTTCTCCTTTAGTGCTAG: -0.413 z-score
GACGGACTGGGGTACCGGGACGTGCTA: -0.753 z-score
AACGGTTTCGGGTTTCGGGACGTGCTA: 5.71 z-score
GGCGGACTGGGGTTTCGGGACGTGCTA: 0.351 z-score
